# Experimental data gathered from unrelated publications.
# Numbered parts are unrelated; each lists some results of a single study.

# Series 1
# Target: Centromere-binding protein 1, full length, His-tagged (CBF1, Saccharomyces cerevisiae, UniProt P17106, residues 1-351)
# Sequence of UniProt P17106 (whole entry, looked up): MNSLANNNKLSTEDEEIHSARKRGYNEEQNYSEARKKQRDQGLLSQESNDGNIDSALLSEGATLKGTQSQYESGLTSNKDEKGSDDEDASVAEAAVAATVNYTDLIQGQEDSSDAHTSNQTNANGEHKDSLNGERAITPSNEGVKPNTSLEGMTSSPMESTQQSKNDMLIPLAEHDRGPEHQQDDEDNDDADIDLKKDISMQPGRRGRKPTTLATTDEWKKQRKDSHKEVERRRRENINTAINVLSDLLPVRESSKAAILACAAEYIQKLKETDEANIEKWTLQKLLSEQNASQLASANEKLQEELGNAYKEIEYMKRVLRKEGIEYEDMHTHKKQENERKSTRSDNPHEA
# Method: competition protein-binding microarray
# Molecule type: double-stranded DNA, one strand shown
# Matrix: in vitro
# Tested at: 2 µM
# Notes: whole 60-bp probe, lowest competitor level
# Added: Pho4 competitor, 0.05 µM
# Reading: higher = stronger binding
# Constant ends, left off below: … GTCTTGATTCGCTTGACGCTGCTG
Strand,fluorescence intensity [a.u.]
GTTACGTTCTGTGGTGGCGTGCCGACTTCCAAGTCC,104
CATACCCAACCTTGAACAGTGGGTGAAGATATTTGT,78.9
TAAGAGGAATGGGTGCTCGTGTCCTGGTTACCGAAA,65.6
TCATGATAGACTTTGTGCGTGGACCCCAAGCCAAAG,80.3
CGTCCTAGTGATTGGTACGTGGGTGCCATGAGGAAG,78
ACCGCTGAGGCAAGTACCGTGCAAAATGATGTGAGT,88
GTATTCAAGCAAGTACACGTGCGGAAGTTGTACCAG,1320
GCCCGCCGGCGACGTCACGCGGCCGTTACGGCGCTC,218

# Series 2
# Target: Replicase polyprotein 1ab, nsp13 helicase (rep, Severe acute respiratory syndrome coronavirus 2, UniProt P0DTD1)
# Mode: inhibitor
# Tested at: 20 µM
Compound,inhibition [%]
Cc1nc[nH]c1CCN,6.87
Cc1[nH]c(/C=C2\C(=O)Nc3ccccc32)c(C)c1CCC(=O)O,9.45
Nc1ncnc2c1ncn2[C@@H]1O[C@H](C(=O)N2CCN(CC(=O)Nc3cccc4c3CNC4=O)CC2)[C@@H](O)[C@H]1O,2.1
CC(C)(C)NCC(O)COc1cc(Cl)ccc1Cl (centres unmarked),2.31
O=C(NCC1CCCCN1)c1cc(OCC(F)(F)F)ccc1OCC(F)(F)F (centres unmarked),2.82
CC[N+](CC)(CC)CCOc1ccc(/C=C/c2ccccc2)cc1,2.76
OCCN1CCN(CC/C=C2/c3ccccc3Sc3ccc(Cl)cc32)CC1,2.12
Cc1ccc(-c2ncccn2)c(C(=O)N2C[C@H](COc3ccc(F)cn3)CC[C@H]2C)c1,3.06
CC(C)CCNC(=O)[C@H](CC(C)C)NC(=O)[C@H]1O[C@@H]1C(=O)O,0.37
CC(C)NCC(O)COc1cccc2[nH]c3ccccc3c12 (centres unmarked),4.14
CCc1nc2c(C)nc(C)cc2n1-c1ccc(CCNC(=O)NS(=O)(=O)c2ccc(C)cc2)cc1,-3.16
CN(C)CCCSc1ccccc1NC(=O)/C=C/c1ccccc1,0.82
COc1cc(C(=O)N2CCOCC2)cc(OC)c1OC,1.38
CC(C)(C)C(=O)OCOC(=O)[C@@H]1N2C(=O)[C@@H](/N=C/N3CCCCCC3)[C@H]2SC1(C)C,-7.33
CN[C@@H](C)C(=O)N[C@H]1CCCC[C@H]2CC[C@@H](C(=O)N[C@@H](c3ccccc3)c3cn(CCCCc4ccc(CCCCn5cc([C@@H](NC(=O)[C@@H]6CC[C@@H]7CCCC[C@H](NC(=O)[C@H](C)NC)C(=O)N76)c6ccccc6)nn5)cc4)nn3)N2C1=O,3.09
Clc1ccc([C@]23CNC[C@H]2C3)cc1Cl,6.09
CC(C)(C)n1nc(-c2cccc3ccccc23)c2c(N)ncnc21,4.78
C[C@@H]1C(=O)O[C@H]2[C@H](O)[C@@]34[C@H]5C[C@@H](C(C)(C)C)[C@]36[C@@H](OC(=O)[C@@H]6O)O[C@@]4(C(=O)O5)[C@@]12O,-0.95
CCc1oc2ccccc2c1C(=O)c1cc(Br)c(O)c(Br)c1,0.1
Cc1ccc(-c2csc3ncnc(SCCC(=O)O)c23)cc1,13.1
O=C1NC(=O)c2cc(Nc3ccccc3)c(Nc3ccccc3)cc21,1.73
Cc1ccc(-c2ccc(C)cn2)nc1,-3.39
CCS(=O)(=O)N1CCC([C@@H](C)n2c(C)c(C(=O)NCc3c(OC)cc(C)[nH]c3=O)c3ccccc32)CC1,-1.63
Cc1ccccc1NC(=N)Nc1ccccc1C,5.91
O=C(O)C(O)Cc1ccc(O)c(O)c1 (centres unmarked),45.3

# Series 3
# Target: Interferon regulatory factor 5, full length, phosphomimetic (IRF5, Homo sapiens, UniProt Q13568-2, residues 1-514, S451D/S453D/S456D/S462D)
# Method: protein-binding microarray
# Molecule type: double-stranded DNA, one strand shown
# Matrix: in vitro
# Tested at: 940 nM top
# Notes: 60-bp whole probe
# Added: salmon DNA 0.4 mg/ml
# Baseline: random background probes
# Reading: higher = stronger binding
# Constant ends, left off below: GCCTAGCAC … GTCTTGATTCGCTTGACGCTGCTG
Strand,fitted relative affinity [z-score]
TTAGCTTTCGGTCTCGGTTAGTGCTAG,7.34
TTAGGACTCCTTTTCCTTTAGTGCTAG,0.0911
TTAGGGATCCTTATCCTTTAGTGCTAG,-0.485
GACGATATCCGACTGGAGACGTGCTAG,-0.205
GACGGACTCGGGTATCGGGACGTGCTA,0.474
TTAGGACTGCACTTTCGGTTAGTGCTA,2.99
GGTCCCACCTCTTGGTGGGAGTGCTAG,-0.632
GACGATTTCACTCTCGAGACGTGCTAG,2.22

# Series 4
# Cell line: HEK-293T
# Observed: pseudovirus infection
# Organism: VSV pseudotyped with SARS-CoV-2 spike
# Tested at: 10 µM
# Time: 16 h
# Baseline: vehicle-treated
SMILES,GFP-positive cells [%]
C=C1CC[C@@]2(O)[C@H]3Cc4ccc(O)c5c4[C@@]2(CCN3CC2CC2)[C@H]1O5,91.8
CCc1cc2c(cc1CC)CC(NC[C@H](O)c1ccc(O)c3[nH]c(=O)ccc13)C2,54.7
COc1c(C)c2c(c(O)c1C/C=C(\C)CCC(=O)O)C(=O)OC2,5.81
Nc1nc(NC2CC2)c2ncn([C@H]3C=C[C@@H](CO)C3)c2n1,69.2

# Series 5
# Organism: SARS-CoV-2
# Observed: cytopathic effect
# Cell line: Vero E6
# Tested at: 10 µM
SMILES,inhibition [%]
CCC[C@H](NC(=O)/C(C#N)=C/c1cccc(Br)n1)c1ccccc1,-39.9
O=C(O)C(O)Cc1ccc(O)c(O)c1 (centres unmarked),-1.5
[NH-]c1c[n+](N2CCOCC2)no1,0.8
C[C@H](NC(=O)/C(C#N)=C/c1cccc(Br)n1)c1ccccc1,-24.4
S=C(S)N1CCCC1,0.33
